Published values pooled from the literature.
Numbered parts are unrelated; each lists some results of a single study. Substitutions count along the parent as printed.

Block 1
Target: CCNE2, cyclin fold, Cln2 fusion (human)
Method: yeast growth competition, sequencing
Sample: yeast
Setting: strong parent motif
Relative to: not given
Direction: higher = stronger binding
Starting sequence: PKN2 docking peptide (human); VSAVRKLDFSDTM; partner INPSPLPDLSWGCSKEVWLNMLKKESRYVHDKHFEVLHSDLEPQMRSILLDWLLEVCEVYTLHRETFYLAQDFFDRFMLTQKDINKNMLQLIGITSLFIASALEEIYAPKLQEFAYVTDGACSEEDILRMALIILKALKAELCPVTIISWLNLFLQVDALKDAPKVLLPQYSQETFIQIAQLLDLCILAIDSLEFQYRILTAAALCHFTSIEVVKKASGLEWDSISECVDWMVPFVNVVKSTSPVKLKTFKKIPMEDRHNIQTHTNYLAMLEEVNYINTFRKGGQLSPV
For `VSAVRKGDFSDTM [L7G]`, “normalised enrichment score” read 0.187.
`VKAVRKLDFSDTM [S2K]`: “normalised enrichment score” 4.55.
`VSAVRKLDFSDLM [T12L]`: “normalised enrichment score” 5.
`VSAVRLLDFSDTM [K6L]` — result for “normalised enrichment score”: 1.47.
For `VSSVRKLDFSDTM [A3S]`, “normalised enrichment score” read 1.11.
`VSAVNKLDFSDTM [R5N]` — result for “normalised enrichment score”: -0.212.
Under “normalised enrichment score”, `VSAVRKLDFSDHM [T12H]` is recorded as 4.61.
`VSAVDKLDFSDTM [R5D]`: “normalised enrichment score” 0.346.
For `VSAVRALDFSDTM [K6A]`, “normalised enrichment score” read 2.42.
For `VSWVRKLDFSDTM [A3W]`, “normalised enrichment score” read 4.5.
`VSAVRKPDFSDTM [L7P]` — result for “normalised enrichment score”: -0.0851.
For `VSAVRKLDQSDTM [F9Q]`, “normalised enrichment score” read -0.216.

Block 2
Target: RNA binding protein fox-1 homolog 2, RRM domain, GST-SBP tag (RBFOX2, Homo sapiens, UniProt O43251-10, residues 100-194)
Method: RNA Bind-n-Seq
Form: RNA
Sample: in vitro
Concentration: 365 nM
Setting: natural RNA segment, single round, ends assumed
Relative to: no-protein control
Direction: higher = stronger binding
Shared flanks, not repeated: GGGAGUUCUACAGUCCGACGAUC … UGGAAUUCUCGGGUGCCAA
Residues (chain): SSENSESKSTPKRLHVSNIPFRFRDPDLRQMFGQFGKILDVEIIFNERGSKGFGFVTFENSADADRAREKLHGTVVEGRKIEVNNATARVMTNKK
`ACAGAGUUACAGAUACACAAUCAAGAGUGUUCUUGCUGAUGCUCGGGGUCUGAAGACUGUCUUCCUAUCUGCUUCUUGCGGCUGAGGAGAGGAGCAGUUCAGUUUACAAA` — result for “RBNS enrichment (R)”: 0.696.
`UUGAAAUUCUGAACACCGUCAGCACCCUCUCUUCCCUAUCAUGGGUCAUCUGACCCCUGUCCGUCUCCUUGUCCCUGCUUCAUGUUUGGGGGCCUUUCUUUAACUGCCUU`: “RBNS enrichment (R)” 0.585.
`CCCCUCCAGCCCACUGCUUUAGGAUGACACAAUGAAUAACACCUAGUCAUAGAAAUCAGUCUCUCUGGUUUGUUUUGUAUUAUGUUGUACAUCAUUAAAGAUCUAAAUAC` — result for “RBNS enrichment (R)”: 0.268.
`UCCAUCAGAUGCUUGGGCCUCCUCCAUCAGAUGCCUGGGCCUCCUCCAUCAGAUGUCUGGGCCUCCUCCAUCAGAUGCCUGGGCCUCCUCCAUCAGAUGCCUGGGCCUCC` — result for “RBNS enrichment (R)”: 0.345.
`AGAUUGUCAAGGCGAUAGAAAACCACUGCCAGAAAGACCUGUAAGAAGGGAUUUGUUCUAUACGAGGCAACUGCAGUGAGUGCUUUUAAGGCUAUCCCUGUCGCACGUUG`: “RBNS enrichment (R)” 0.57.
`AGCAGCUCUCUGCAGAACAAAAACUAAUUCAAUGAAGCAGCUGUCCCUCCCAGUGUUUGCAGAGCUGAGAUUUUCCUAAUGACCUAAGAAGAUACUGACGUAGAACGGUA`: “RBNS enrichment (R)” 1.05.
For `UCAUUUGUGUGAUGUGUUUGGCCUUACCAAAGCAAAAGAGGGUGCAAGAAUGUGGGAGUAUGUCUGCCGGUUUCAACACACACAGACAAACACAGCCACACGCGCACACA`, “RBNS enrichment (R)” read 0.422.
For `UAGAUCACCUUAUGGAUGUCGCAAUAAUACAAACCAGUGUACCUCUGACCUUCUCAUCAAGAGAGCUGGGGUGCUUUGAAGAUAAUCCCUACCCCUCUCCCCCAAAUGCA`, “RBNS enrichment (R)” read 5.34.
`ACAUCUAUUAUUAUAGUGCUCAGCAGUGUGGGCAUUGAAGAGGCGCAGAAUGCUUUGAAAGAAACUAAUCAGAAUCUUGGAACAUCAUGAUCAUGCCAUUCUUAAGUAAA` — result for “RBNS enrichment (R)”: 0.456.
`CAGGCCCCACCAUCGGGACAUCACCCCAGCCUCUGCCAGGGGCAGAGGUAACCCCAAGCAGGGCUGGCCCCUCUAAAGAGGACAUUUCCCAGUUUGUCCUUUCUUGUCCA`: “RBNS enrichment (R)” 0.565.
Under “RBNS enrichment (R)”, `UGGCAACUGAGAUGGGAUGGAUCCAUUUAAUUAGAGAACGGUGAAAUCUUUCUAGUUGGGCUUUUUGAUUUAUUUUAAAUGGAUAUUGCUCUUUGACUUGGUUUCUUCUU` is recorded as 0.507.
Under “RBNS enrichment (R)”, `UUGGCAGGUGCUUUCGUUGCCAUCUCACUCUGAGGGCAUACCUGGAUGUCCAGGCAAGACUGGGCGAAGUUUCUGAGUGGCCCUUUGUUUAGGUGAUGUCCUCAGACCUG` is recorded as 0.323.

Block 3
Target: ABI1, truncated, D143A, DHFR fusion (Arabidopsis thaliana)
Method: DHFR PCA, deep sequencing
Sample: yeast
Setting: methotrexate growth selection, single substitutions
Together with: (+)-ABA 58 µM
Relative to: wild-type fitted maximum
Direction: higher = stronger binding
Starting sequence: PYL1, truncated, DHFR fusion (Arabidopsis thaliana); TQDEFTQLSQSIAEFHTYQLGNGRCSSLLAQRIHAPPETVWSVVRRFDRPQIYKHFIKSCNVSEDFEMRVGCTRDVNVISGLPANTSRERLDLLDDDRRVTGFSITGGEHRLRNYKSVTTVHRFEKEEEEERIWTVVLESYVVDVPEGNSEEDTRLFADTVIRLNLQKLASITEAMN
`R49H` — result for “relative binding score”: 76.8%.
`V70T`: “relative binding score” 71.2%.
Under “relative binding score”, `A35D` is recorded as 9.5%.
`A30E`: “relative binding score” 79%.
Under “relative binding score”, `L82M` is recorded as 72.6%.
Under “relative binding score”, `G148N` is recorded as 75.7%.
Under “relative binding score”, `F47D` is recorded as 1.3%.
For `V137K`, “relative binding score” read -17.9%.
For `M176H`, “relative binding score” read 79.7%.
`E64I` — result for “relative binding score”: 74.3%.

Further values, each from its own experiment
For `PhoQ, residues 284 288 289 292 302 303 SSTLSG`, the fold induction was 10.7 (PhoP, residues 12 14 15 18 19 NFCKL (Escherichia coli, UniProt P23836); Sort-seq, refers to: YFP reporter; E. coli; PhoQ-PhoP variant library, together with: 10 µM Mg2+; relative to: high Mg2+ state, higher = stronger signaling).

Some of these lines once more (block 1):
Under “normalised enrichment score”, `VSAVRKLDFSDHM [T12H]` is recorded as 4.61.
`VSAVNKLDFSDTM [R5N]` — result for “normalised enrichment score”: -0.212.
For `VSAVRALDFSDTM [K6A]`, “normalised enrichment score” read 2.42.
